Results of several laboratories.
Lines come from different studies, so protocols differ. ± marks the error that the study gave.

SMILES | test | test system | conditions | scale | measurement | result
CC[C@H](C)[C@H](NC(=O)[C@H](CCCCN)NC(=O)[C@H](CS)NC(=O)[C@H](CC(N)=O)NC(=O)[C@H](C)NC(=O)[C@H](CCCNC(=N)N)NC(=O)[C@H](CCCNC(=N)N)NC(=O)[C@H](CC(N)=O)NC(=O)[C@H](CCCNC(=N)N)NC(=O)[C@@H](NC(=O)[C@H](CCCNC(=N)N)NC(=O)[C@H](CS)NC(=O)[C@H](CO)NC(=O)[C@@H](NC(=O)[C@H](CCC(N)=O)NC(=O)[C@H](CS)NC(=O)[C@H](CCCCN)NC(=O)[C@@H](N)CCCNC(=N)N)[C@@H](C)CC)[C@@H](C)CC)C(=O)N[C@@H](CO)C(=O)N[C@@H](CS)C(=O)N[C@@H](CC(N)=O)C(=O)O | LC/MS | PBS | 0.1 mg/mL | relative to: LC peak area | two-disulfide form | 46%
C[C@]12C[C@H](c3ccc(-c4ccc(C(=O)O)cc4)cc3)C3=C4CCC(=O)C=C4CC[C@H]3[C@@H]1CC[C@@]2(O)C(F)(F)C(F)(F)F | – | rat | subcutaneous, 0.5 mg/kg, 0 to 24 h, efficacious exposure, steady state | – | AUC(ss) | 573 ng·h/mL
N=C(N)NCCC[C@@H]1NC(=O)[C@H](Cc2c[nH]c3ccccc23)NC(=O)[C@@H](CC2CCCCC2)NC(=O)[C@@H]2CCCN2C(=O)[C@@H](NC(=O)CCc2ccccc2)CCCNC1=O | two-compartment model | C57BL/6J mouse, plasma | 1 mg/kg single dose | – | elimination half-life | ~0.333 h
CC(=O)[CH](C(C)=O)[Pt-2]1([S+](C)C)[O]C(C)=CC(C)=[O+]1 (centres unmarked) | – | rat, blood | intravenous, 20 mg/kg, single dose | – | AST | 92.3 ± 8.6 U/L
COc1cc(NC(C)=O)c2c(c1O)-c1c(OC)c(OC)cc3c1C(C2)N(C)CC3 (centres unmarked) | – | male Wistar rat, plasma | intravenous, 100 mg/kg | – | MRT(0-t) | 1.63 h
CN1CCC[C@]1(C)/C=C/S(=O)(=O)NC(=O)Nc1c2c(cc3c1CCC3)CCC2 | – | human, plasma | oral, 50 mg twice daily, day 14, multiple ascending dose | – | Cmax after first dose | 8100 ng/mL
[2H]C([2H])([2H])NC(=O)c1ccc(N2C(=S)N(c3ccc(C#N)c(C(F)(F)F)c3)C(=O)C2(C)C)cc1F | – | healthy men | oral, 50 days, all dose groups pooled | – | adverse events | 5 occurrences
O=C([O-])CN1CCN(CC(=O)[O-])CCN(CC(=O)NCC2CCC(C(=O)NC(Cc3ccc4ccccc4c3)C(=O)NCCCCC(NC(=O)NC(CCC(=O)O)C(=O)O)C(=O)O)CC2)CCN(CC(=O)[O-])CC1.[44Sc+3] (centres unmarked) | transmetallation stability | – | 0.5 h, 37 °C, together with: Fe3+ 10 mM | – | intact complex | 97.3 ± 0.9%
COc1ccc(S(=O)(=O)N2CCc3ccccc3C2)cc1N1CCN(C(=O)c2ccc(F)cc2C(F)(F)F)CC1 | – | rat, plasma | intravenous, 10 mg/kg, 30 min, single dose | – | concentration | 963 ng/mL
CC[C@H](C)[C@H](NC(=O)[C@H](Cc1ccccc1)NC(=O)[C@H](CC(=O)O)NC(=O)[C@@H]1CCCCNC(=O)NC[C@H](NC(=O)[C@H](CC(C)C)NC(=O)[C@H](CCCNC(=N)N)NC(=O)[C@H](CCSC)NC(=O)[C@H](C)N)C(=O)N[C@@H](CCCCN)C(=O)N[C@@H](Cc2ccccc2)C(=O)N[C@@H](Cc2ccccc2)C(=O)N1)C(=O)N[C@@H](CC(C)C)C(=O)N[C@@H](CCC(N)=O)C(=O)N[C@@H](CCCNC(=N)N)C(=O)N[C@@H](CCCCN)C(=O)N[C@@H](CCCCN)C(=O)O | circular dichroism | 20% TFE in PBS | 200 µM, pH 7.4, 25 °C | – | helicity | 32.8%
O=C(O)[C@@H]1C[C@@H](O)CN1C(=O)[C@@H]1CCCN1 | potentiometric titration | – | 25 °C, MAH-1 complex, together with: Fe(III) | – | log beta | 9.21
CCCC[C@H](NC(=O)CNC(=O)CNC(=O)CN1CCN(CC(=O)O)CCN(CC(=O)O)CC1)C(=O)N[C@H]1CC(=O)NCCCC[C@@H](C(N)=O)NC(=O)[C@H](Cc2c[nH]c3ccccc23)NC(=O)[C@H](CCCNC(=N)N)NC(=O)[C@@H](Cc2ccccc2)NC(=O)[C@H](Cc2c[nH]cn2)NC1=O [gallium-67 labelled] | – | female C57 mice, B16/F1 melanoma | intravenous, 0.037 MBq, 0.5 h | relative to: tumour over lung | tumour to tissue ratio | 5.54
Cc1ccc2oc(-c3c4c(N)n[nH]c(=O)c4nn3-c3ccc(NC(=O)/C=C/CN(C)C)cc3)c(C)c2c1 | – | mouse, plasma | intraperitoneal, 3 mg/kg | – | MRT | 3.14 h
CC(C)c1cnc(-c2cc(Cl)ccc2F)cc1Nc1ccncc1C(=O)NC(CO)CO | – | patients, phase I monotherapy | oral, dose not given, grade 3 | – | patients with decreased appetite | 0%
N=C(N)NCCC[C@H](NC(=O)[C@H](CCCNC(=N)N)NC(=O)[C@H](CCCNC(=N)N)NC(=O)[C@H](CCCNC(=N)N)NC(=O)[C@H](CCCNC(=N)N)NC(=O)[C@H](CCCNC(=N)N)NC(=O)[C@H](CCCNC(=N)N)NC(=O)[C@H](CCCNC(=N)N)NC(=O)[C@H](CCCNC(=N)N)NC(=O)[C@H](CCCNC(=N)N)NC(=O)[C@H](CCCNC(=N)N)NC(=O)[C@H](CCCNC(=N)N)NC(=O)[C@H](CCCNC(=N)N)NC(=O)[C@H](CCCNC(=N)N)NC(=O)[C@H](CCCNC(=N)N)NC(=O)[C@H](CCCNC(=N)N)NC(=O)[C@H](CCCNC(=N)N)NC(=O)[C@H](CCCNC(=N)N)NC(=O)[C@H](CCCNC(=N)N)NC(=O)[C@H](CCCNC(=N)N)NC(=O)c1ccc2c(c1)C(=O)OC21c2ccc(O)cc2Oc2cc(O)ccc21)C(=O)O | – | bovine, healthy cartilage explants | 30 µM, 24 h, 37 °C, 5-FAM labelled | relative to: tissue over bath concentration | cartilage uptake ratio | ~181
CCCCCCCCCCCCCCCC(=O)N[C@@H](CCCCN)C(=O)N[C@H](C(=O)N[C@H](C(=O)N[C@@H](CCCCN)C(=O)N[C@@H](CO)C(=O)O)[C@@H](C)O)[C@@H](C)O | – | hairless mouse skin | 50 µg/cm^2, 24 h | – | amount retained in dermis | 0.3 ± 0.1 µg/cm²
COc1cc(C)c(Cc2ccc(O)cc2)cc1[C@@H]1S[C@H](CO)[C@@H](O)[C@H](O)[C@H]1O | – | Japanese T2DM patients, plasma | 1 mg luseogliflozin, day 1, once daily | – | Cmax | 1.61 ± 0.383 ng/mL
CC1=C(/C=C/C(=O)N2CCN(C(N)=O)CC2)C(C)(C)CCC1 | – | female mice, retina | oral, 120 mg/kg | – | Cmax | 30 nmol/g
COC(=O)C(Cc1c[nH]cn1)NC(=O)C1(C)C(O)CCC2(C)C1CCC1(C)C2CC=C2C3C(C)C(C)CCC3(C)CCC21C (centres unmarked) | – | rat faecal matter in buffer | 12 h, 37 °C | – | prodrug hydrolysed | 62.3%
CC(=O)N[C@H](CSSC[C@H](N)C(=O)O)C(=O)N[C@H](C)C(=O)N[C@H](CCCNC(=N)N)C(=O)N[C@H](CCCNC(=N)N)C(=O)N[C@H](CCCNC(=N)N)C(=O)N[C@H](C)C(=O)N[C@H](CCCNC(=N)N)C(N)=O | – | male human, plasma | intravenous, 10 mg, single dose, healthy volunteers | – | clearance | 130 mL/min
O=C(O)/C=C/c1cccc(S(=O)(=O)Nc2ccccc2)c1 | – | human, moderate liver dysfunction, plasma | intravenous, 400 mg/m^2 belinostat, cycle 1 day -7, geometric mean | relative to: metabolite over belinostat | Cmax metabolic ratio | 0.0824
CCCC[C@H](NC(=O)[C@H](CC(C)C)N(C)C(=O)CNC(=O)[C@@H](NC(=O)[C@H](Cc1ccccc1)NC(=O)[C@H](CCCCN)NC(=O)[C@@H](N)CC(=O)O)C(C)C)C(N)=O | – | anaesthetized spinalized rat | IV, dose not given, not significant | relative to: baseline | heart rate increase | < 7%
CC(=O)N[C@@H](CC(N)=O)C(=O)NCC(=O)N[C@@H](CCCNC(=N)N)C(=O)N[C@@H](C)C(N)=O | 1H NMR | sodium phosphate buffer 50 mM | pH 7.4, 37 °C | – | half-life of Asn form | 21.8 h
O=c1c2cc([N+](=O)[O-])ccc2n(CCN2CCCC2)n1Cc1ccccc1 | resazurin | peritoneal macrophages, BALB/c mice | 48 h, 10% FBS | – | CC50 | 170 ± 21.3 µM
Cn1c(=O)oc2ccc(-c3ccc(CC(C#N)NC(=O)C4CNCCCO4)c(F)c3)cc21 (centres unmarked) | – | human | oral, 20 mg once daily, TEAE, multiple ascending dose | – | AST increased incidence | 0%
COc1ccc(/C=C/c2ccc(-c3ccc(C)cn3)nc2)cc1 | TCSPC | MeOH | – | – | fluorescence lifetime | 0.95 ns

Repeated from above:
SMILES | test | test system | conditions | scale | measurement | result
[2H]C([2H])([2H])NC(=O)c1ccc(N2C(=S)N(c3ccc(C#N)c(C(F)(F)F)c3)C(=O)C2(C)C)cc1F | – | healthy men | oral, 50 days, all dose groups pooled | – | adverse events | 5 occurrences
CC[C@H](C)[C@H](NC(=O)[C@H](CCCCN)NC(=O)[C@H](CS)NC(=O)[C@H](CC(N)=O)NC(=O)[C@H](C)NC(=O)[C@H](CCCNC(=N)N)NC(=O)[C@H](CCCNC(=N)N)NC(=O)[C@H](CC(N)=O)NC(=O)[C@H](CCCNC(=N)N)NC(=O)[C@@H](NC(=O)[C@H](CCCNC(=N)N)NC(=O)[C@H](CS)NC(=O)[C@H](CO)NC(=O)[C@@H](NC(=O)[C@H](CCC(N)=O)NC(=O)[C@H](CS)NC(=O)[C@H](CCCCN)NC(=O)[C@@H](N)CCCNC(=N)N)[C@@H](C)CC)[C@@H](C)CC)C(=O)N[C@@H](CO)C(=O)N[C@@H](CS)C(=O)N[C@@H](CC(N)=O)C(=O)O | LC/MS | PBS | 0.1 mg/mL | relative to: LC peak area | two-disulfide form | 46%
